Results collected from several papers.
“And” joins repeats or separate records; there may be more than shown. Numbers after ± are the reported error.
pyrD: Dihydroorotate dehydrogenase (quinone) (pyrD, Acinetobacter baumannii, UniProt B7GZW7)
Kir3.1/Kir3.4: Kir3.1/Kir3.4 (Homo sapiens, UniProt P48544+P48549)
AKR1B1: Aldo-keto reductase family 1 member B1 (AKR1B1, Homo sapiens, UniProt P15121)
TOP2A: DNA topoisomerase 2-alpha (TOP2A, Homo sapiens, UniProt P11388)
DCPS: m7GpppX diphosphatase (DCPS, Homo sapiens, UniProt Q96C86)
T1: riboswitch RNA yjdF aptamer domain (Bacillus subtilis); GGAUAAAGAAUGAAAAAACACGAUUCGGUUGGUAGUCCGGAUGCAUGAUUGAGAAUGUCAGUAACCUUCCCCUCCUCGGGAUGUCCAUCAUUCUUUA

Cc1cc(Nc2ccc(C(F)(F)F)c(F)c2)n2nc(C(C)(F)F)nc2n1  robust Z-score (pyrD; enzyme activity, inhibitor, colorimetric HTS, refers to: DCIP reduction; 3 µM; direction not given): 19.5
O=C(COc1cccc(Cl)c1Cl)Nc1cc(C2CCC2)nn1C1CCOCC1  Emax (Kir3.1/Kir3.4; activator; HEK293): < 10%
CN(C)C(=O)C(CCN1CCC(O)(c2ccc(Cl)cc2)CC1)(c1ccccc1)c1ccccc1  effective gating valence (Calcium-activated potassium channel subunit alpha-1, with LRRC26 γ1 subunit (KCNMA1, Homo sapiens, UniProt Q12791); BK current, inside-out patch clamp; excised membrane patch; 0.3 µM, γ1 coexpressed, individual fits, together with: nominally 0 Ca2+ cytosolic): 1.19 ± 0.15 elementary charges
CC1CCCN(C(=O)c2cc3ncccn3n2)C1 (stereo not shown)  log fold enrichment (Protein transport protein Sec31A (SEC31A, Homo sapiens, UniProt O94979); binding, affinity selection mass spectrometry; reference: other proteins in batch): 0.00259
O=C(CN1C(=O)S/C(=C\c2ccc(F)cc2)C1=O)c1ccc([N+](=O)[O-])cc1  log IC50 (AKR1B1; enzyme activity, inhibitor): 2.76 log nM
[O-][S+]1CCCCS1 (stereo not shown)  SOD1 dimer fraction (Superoxide dismutase [Cu-Zn] (SOD1, Homo sapiens, UniProt P00441, G94A); LC-MS; human whole blood; 5 µM, 1 h, 37 °C): 0.55%
CCCCCCCCCCCCCCc1ccc([C@H]2CC[C@H]([N+](C)(C)CCC)CC2)cc1.[I-]  Ki/Km ratio (Sphingosine kinase 2 (SPHK2, Homo sapiens, UniProt Q9NRA0); inhibitor, radiometric flash-plate; cell lysate; together with: sphingosine 5 µM): 1.4
CC1=NN(c2ccccc2)C(=O)C1=NNc1ccc(S(N)(=O)=O)cc1  inhibition (bovine α-glucosidase; enzyme activity, inhibitor, glucose oxidase; 500 µg/mL, together with: maltose): 50.1%
C1=C/COCc2cc(ccc2OCCN2CCCC2)Nc2nccc(n2)-c2cccc(c2)COC/1  percent of control (Membrane-associated tyrosine- and threonine-specific cdc2-inhibitory kinase (PKMYT1, Homo sapiens, UniProt Q99640); concentration not given): 95%
COc1ccc(/C=C2\SC(=O)N(Cc3nc4ccccc4s3)C2=O)cc1OC  Hill slope (AKR1B1; enzyme activity, inhibitor): -0.805
COc1cc(CNCCc2ccccc2)ccc1Oc1ccc(C(N)=O)cn1  Imax (Mu-type opioid receptor, with Gi1 (OPRM1, Homo sapiens, UniProt P35372); Gαi1 dissociation, antagonist, BRET2 TRUPATH; HEK-293T; together with: DAMGO EC80; reference: naloxone): 111 ± 1.9%
Cc1nn(-c2nc3c(F)cc(F)cc3s2)c(O)c1C(c1ccc(C(F)(F)F)cc1)c1c(C)nn(-c2nc3c(F)cc(F)cc3s2)c1O  inhibition (Cyclic GMP-AMP synthase (Cgas, Mus musculus, UniProt Q8C6L5); enzyme activity, inhibitor, pyrophosphatase-coupled; 12.5 µM, 1.5 h, mouse enzyme): 82.1%
C[C@]12C[C@H](O)[C@H]3[C@@H](CCC4=CC(=O)CC[C@@]43C)[C@@H]1CC[C@@H]2C(=O)CO  18-hydroxylation product formation rate (Cytochrome P450 11B1, mitochondrial (CYP11B1, Homo sapiens, UniProt P15538, V320A); substrate; 100 µM, 37 °C, phospholipid vesicles): 1.4 ± 0.1 min⁻¹
C=CC(=O)N1CCC(COCC(=O)N2CCN(c3nc(-c4cnc(N)nc4C(F)F)nc(N4CCOC[C@@H]4C)n3)CC2)CC1  remaining binding (Peripheral plasma membrane protein CASK (CASK, Homo sapiens, UniProt O14936); KINOMEscan; 1 µM): 93%
CN(C)c1ccc(C(=C2C=CC(=[N+](C)C)C=C2)c2ccccc2)cc1  Kd (T1, riboswitch RNA yjdF aptamer domain (Bacillus subtilis); fluorescence titration): 26 nM
CCc1cc(NC(=O)COc2ccc(Cl)cc2Cl)n(C2CCC(F)(F)CC2)n1  Emax (Kir3.1/Kir3.4; thallium flux, activator; HEK293; reference: standard compound): 76%
N[C@@H](Cc1ccccc1)C(=O)Nc1ccc2ccccc2c1  Km (rat aminopeptidase III; substrate): 25 µM
O=c1nc(SCc2cc(F)cc(C(F)(F)F)c2)nc(SCc2ccc3nc(Cl)ccc3c2)[nH]1  ATP hydrolysis rate (TOP2A; ATPase activity; 7.8 µM, together with: ATP 0.5 mM): 2.19 µM/min and 0.124 µM/min
CCC1(O)CCCN(C(=O)c2ccc(-c3ccc(F)c(NC(=O)CCl)c3)cc2)C1 (stereo not shown)  protein adduct (DNA dC->dU-editing enzyme APOBEC-3A (Homo sapiens, UniProt P31941); covalent modifier, intact protein mass spectrometry, refers to: adduct +26691 Da; 500 µM, 3 h, 20-fold molar excess): 53%
Cc1cc(NC(=O)C2CCc3cc(F)ccc3O2)n(C2CCS(=O)(=O)C2)n1 (stereo not shown)  Emax (Kir3.1/Kir3.4; thallium flux, activator; HEK293; reference: standard compound): 23%
CCC(F)(F)c1nc2nc(C)cc(Nc3ccc(S(F)(F)(F)(F)F)cc3)n2n1  robust Z-score (pyrD; enzyme activity, inhibitor, colorimetric HTS, refers to: DCIP reduction; 3 µM; direction not given): 20.4
C[n+]1cn([C@@H]2O[C@H](COP(=O)(O)CP(=O)(O)OP(=O)(O)OC[C@H]3O[C@@H](n4cnc5c(=O)[nH]c(N)nc54)[C@H](O)[C@@H]3O)[C@@H](O)[C@H]2O)c2nc(N)[nH]c(=O)c21  association rate constant (DCPS; binding, stopped-flow fluorescence; 10% glycerol; 20 °C): 6.6e+07 ± 3.5e+06 M⁻¹ s⁻¹
Nc1ncnc2c1ncn2[C@@H]1O[C@H](COP(=O)(O)CP(=O)(O)OP(=O)(O)O)[C@@H](O)[C@H]1O  specific binding (P2X purinoceptor 1 (P2RX1, Homo sapiens, UniProt P51575, M214A); saturation binding; HEK293; 1 nM): 39.5 CCPM and 5 CCPM and 25 CCPM
NCCS(=O)(=O)O  normalised MST signal (Sodium- and chloride-dependent taurine transporter (SLC6A6, Homo sapiens, UniProt P31641, S402A); binding, microscale thermophoresis; 977 nM, room temperature, together with: 50 nM labelled protein; higher = more binding): -0.00438
Nc1nc2c(ncn2[C@@H]2O[C@H](COP(=O)(O)O)[C@@H](O)[C@H]2O)c(=O)[nH]1  reaction rate (GUK1 (Homo sapiens, UniProt Q16774, R44A); enzyme activity, NADH-coupled; 250 µM): -0.564 s⁻¹ and -0.171 s⁻¹ and -0.839 s⁻¹
CCNC(=O)/C=C/c1cccc(Br)c1  L-leucine uptake (Sodium-dependent neutral amino acid transporter B(0)AT1 (SLC6A19, Homo sapiens, UniProt Q695T7); inhibitor, L-[14C]leucine uptake; CHO-BC cells; 30 µM, sodium-free): 5.3 nmol/6 min/mg protein and 5.57 nmol/6 min/mg protein and 5.34 nmol/6 min/mg protein
CCN1CCC[C@H]1CNC(=O)c1c(O)c(Cl)cc(Cl)c1OC  log2 fold change (Prokineticin receptor 2 (PROKR2, Homo sapiens, UniProt Q8NFJ6); β-arrestin recruitment, TANGO luminescence, refers to: PK2; concentration not given; reference: basal luminescence): -0.45
COC(=O)c1ccc(NC(=O)COc2ccc(Cl)cc2Cl)s1  activity (Kir3.1/Kir3.4; activator, thallium flux; HEK293; concentration not given): inactive
COc1cc(F)ccc1-c1ncnc(Nc2cccc(C[S@](C)(=N)=O)c2)n1  remaining activity (Ephrin type-B receptor 4 (EPHB4, Homo sapiens, UniProt P54760); kinase activity; 10 µM, together with: 10 µM ATP): 54%
CCCCCCCC/C=C\CCCCCCCC(=O)NCCc1ccc(O)c(O)c1  Hill coefficient (Transient receptor potential cation channel subfamily V member 1 (Trpv1, Mus musculus, UniProt Q704Y3, S511A); ion current, agonist, whole-cell patch clamp; S511A): 3.47 ± 0.32
COc1cc2ccc(=O)oc2cc1O  reaction velocity (uncharacterized protein (Solanum tuberosum, UniProt M0ZZL3); inhibitor, UDP-Glo; together with: 100 µM UDP-glucose): 8.8 ± 0.3 nmol/min/mg
O=c1cc(-c2ccc([N+](=O)[O-])cc2)[nH]c2c(-c3ccc(Cl)cc3)c(Cc3ccccc3)nn12  melting temperature shift (SR-related and CTD-associated factor 8 (SCAF8, Homo sapiens, UniProt Q9UPN6); thermal stability, binder, thermal proteome profiling; RD, cell lysate; 50 µM, 0.5% DMSO; reference: DMSO vehicle): 3.2 °C
CCCCC[C@H](O)/C=C/[C@H]1C(=O)C[C@H](O)[C@@H]1C/C=C\CCCC(=O)O  Emax (Prostaglandin D2 receptor (PTGDR, Homo sapiens, UniProt Q13258, D319N); agonist): 124 ± 10%
NC/C(=C\F)COc1cccc(Cn2c(=S)[nH]c(=O)c3[nH]cnc32)c1  inhibition (Voltage-dependent L-type calcium channel subunit alpha-1C (CACNA1C, Homo sapiens, UniProt Q13936); peak ion current, inhibitor, automated patch clamp; 30 µM, pulse 1): 16.9%
Cc1n[nH]c2ccc(-c3cc(OC[C@@H](N)Cc4ccccc4)cnc3-c3ccoc3)cc12  log2 fold change (Cyclin-dependent kinase 1 (CDC28, Candida albicans, UniProt P43063); kinase binding, competitor, MIB/MS competition, refers to: CDC28; Candida albicans cell lysate; 1 µM; reference: DMSO): 0.127
Cc1nc2ncnn2c(Nc2ccc(C(F)(F)F)cc2)c1Cl  robust Z-score (pyrD; enzyme activity, inhibitor, colorimetric HTS, refers to: DCIP reduction; 3 µM; direction not given): 18
CC1=NNC(=O)C1=NNc1ccc(S(N)(=O)=O)cc1  inhibition (bovine α-glucosidase; enzyme activity, inhibitor, glucose oxidase; 50 µg/mL, together with: maltose): 29.7%
c1coc(-c2n[nH]cc2-c2ccnc3ccccc23)c1  log2 fold change (Serine/threonine-protein kinase CLA4 (CLA4, Candida albicans, UniProt O14427); kinase binding, MIB/MS competition; Candida albicans lysate; 10 µM; reference: DMSO, negative = stronger binding): -0.05
Cn1c[n+]([C@@H]2O[C@H](COP(=O)(O)OP(=O)([O-])OP(=O)(O)OC[C@H]3O[C@@H](n4cnc5c(=O)[nH]c(N)nc54)[C@H](O)[C@@H]3O)[C@@H](O)[C@H]2O)c2nc(N)[nH]c(=O)c21  hydrolysis (DCPS; substrate, HPLC; concentration not given, 30 min): 95.1 ± 3%
O=c1nc(SCc2ccc(C(F)(F)F)cc2)nc(SCc2csc3ccc(Cl)cc23)[nH]1  mean decatenated DNA (TOP2A; decatenation; 0.49 µM): 0%
CN1CCN(c2cc(-c3ccncc3)c(-c3ccc4ccccc4c3)nn2)CC1  activation (Prostacyclin receptor (PTGIR, Homo sapiens, UniProt P43119); agonist, FLIPR; 12.5 µM): -0.3%
O=S(=O)(O)C1CCNCC1  normalised MST signal (Sodium- and chloride-dependent taurine transporter (SLC6A6, Homo sapiens, UniProt P31641, G62A); binding, microscale thermophoresis; 1 mM, room temperature, together with: 50 nM labelled protein; higher = more binding): 0.0711
CCOc1nc2nc(C)cc(Nc3ccc(S(F)(F)(F)(F)F)cc3)n2n1  robust Z-score (pyrD; enzyme activity, inhibitor, colorimetric HTS, refers to: DCIP reduction; 3 µM; direction not given): 24.5
CCCN(CCC)S(=O)(=O)c1ccc(-c2n[nH]c(=S)o2)cc1  fluorescence increase (P2X purinoceptor 4 (P2RX4, Homo sapiens, UniProt Q99571); calcium mobilization; MCF7 stably transfected; 100 µM, together with: ATP 100 µM): 74.4 ± 0.89%
Cc1ccc(/C=C2\SC(=O)N(Cc3nc4ccccc4s3)C2=O)cc1  log IC50 (AKR1B1; enzyme activity, inhibitor): 2.47 log nM
Nc1ccn([C@H]2C[C@H](O)[C@@H](COP(=O)(O)OP(=O)(O)OP(=O)(O)O)O2)c(=O)n1  kcat (DNA polymerase beta (POLB, Homo sapiens, UniProt P06746); substrate; AP-site template): 0.000133 s⁻¹
